Published values gathered from unrelated publications.
Protocols differ between the studies behind these lines. ± gives the spread as reported.

SMILES | cell line | test | conditions | how to read | IC50 [µM]
C=C[CH2][Pd-]([Cl])[Cl].CC(C)c1cccc(C(C)C)c1-n1c[n+](-c2c(C(C)C)cccc2C(C)C)c2c1-c1cccc3cccc-2c13 | NTERA2 | cell growth or viability, MTT | 72 h |  | 0.4
Clc1nc2ccccc2cc1-c1nc2cc(Br)ccc2[nH]1 | L02 | cell growth or viability, MTT | 48 h |  | > 100
COc1c(OCc2ccccc2)cc2oc3cc(OCc4ccccc4)c(CC=C(C)C)c(O)c3c(=O)c2c1CC=C(C)C | SMMC-7721 | cell growth or viability | 48 h |  | 11.6
CC(C)c1cccc(C(C)C)c1[N+]#[C][Pt-2]([Cl])([Cl])[C]#[N+]c1c(C(C)C)cccc1C(C)C | MRC5 | cell growth or viability |  |  | > 100
COc1ccc2cc3[n+](cc2c1OCc1cn(Cc2ccc(Cl)cc2F)nn1)CCc1cc2c(cc1-3)OCO2 | SMMC-7721 | cell growth or viability, MTT |  |  | 14.3
CC(C)c1ccc(C[C@H](C)C(=O)NC(=O)N[C@@H]2O[C@H](CO)[C@@H](O)[C@H](O)[C@H]2O)cc1 | human T-lymphocyte | cell growth or viability | 72 h |  | > 250
N#CCOc1ccc(-c2ccc3[nH]c4ncc(/C=C/c5ccccc5)cc4c3c2)cc1 | Ba/F3 NPM-ALK | cell proliferation, [3H]-thymidine incorporation |  |  | 1.6
CCCC(CCC)C(=O)[O][Pt]1([O]C(=O)C(CCC)CCC)[O]C(=O)C(=O)[O]1.NC1CCCCC1N | five cancer cell lines | cytotoxicity | mean over panel |  | 10.2
C[C@]1([N+](=O)[O-])C(=O)c2ccccc2O[C@@H]1CC(=O)OC12CC3CC(CC(C3)C1)C2 | human Fibroblast | cell growth or viability, SRB | 96 h |  | > 100
Clc1cc2nc(-c3cc4ccccc4nc3Cl)[nH]c2cc1Cl | BEL-7404 | cell growth or viability, MTT | 48 h |  | 19.4
COc1cccc2c1C(=O)c1c(O)c3c(c(O)c1C2=O)CC(O)(C(=O)CO)CC3OC1CC(NC(=O)CCC2=C(C)C(=O)C=C(C(C)C)C2=O)C(O)C(C)O1 (centres unmarked) | human dermal fibroblasts | cytotoxicity, MTT | 72 h |  | ~10
CC/C(=C(\c1ccc(O)cc1)c1ccc(OCCN(C)CCOCCOCCN(C)CCOc2ccc(/C(=C(/CC)c3ccccc3)c3ccc(O)cc3)cc2)cc1)c1ccccc1 | MCF7 (ER-positive) | cell growth | 96 h |  | 0.07
N=C(N)NCCC[C@H](N)C(=O)NC(CC(=O)N[C@@H](Cc1c[nH]c2ccccc12)C(=O)O)c1ccc2ccccc2c1 (some centres unmarked) | BT-474 | cell growth or viability, ATP luminescence | 72 h |  | > 100
O=C(CCCCC1SCC2NC(=O)NC21)NCCCCC(CN1CCCC1CN1C(=O)C(=O)NCC1Cc1ccccc1)N1CC(Cc2ccc(O)cc2)N(CCc2ccccc2)C(=O)C1=O (centres unmarked) | WM 266-4 | cell growth or viability, ATP luminescence | 72 h |  | > 100
Clc1nc2cc3c(cc2cc1-c1nc2cc(Br)ccc2[nH]1)OCO3 | BEL-7404 | cell growth or viability, MTT | 48 h |  | > 100
O=C1NCCN1C[C@H](O)Cn1c2ccc(F)cc2c2cc(F)ccc21 | U2OS Per2-dLuc | Per2 reporter gene, repressor |  |  | ≤ 1
CC(C)c1cccc(C(C)C)c1[N+]#[C][Pd-]([Cl])([Cl])=[C](Nc1ccc(CN[C](Nc2c(C(C)C)cccc2C(C)C)=[Au][Cl])cc1)Nc1c(C(C)C)cccc1C(C)C | MRC5 | cell growth or viability |  |  | > 100
CC(=O)NCCCN(C)CCCNc1cccc2c1C(=O)c1cccc(NCCCN(C)CCCNC(C)=O)c1C2=O | mouse bone marrow cells | cell proliferation, CCK-8 | 48 h |  | 6
COc1ccc(CN2C[C@H](O)[C@H](O)[C@@H]2CO)cc1 | CEM-DNR daunorubicin resistant | MTS | 72 h |  | 94 ± 10
CCc1ccc([C@H](C)CC(=O)N[C@@H]2O[C@H](CO)[C@@H](O)[C@H](O)[C@H]2O)cc1 | human T-lymphocyte | cell growth or viability | 72 h |  | > 250
CO[C@@H]1[C@@H](O[C@@H]2O[C@H](C)[C@@H](O[C@H]3C[C@@](C)(O)[C@@H](OC(=O)/C=C/c4ccc(C(F)(F)F)cc4)[C@H](C)O3)[C@H](N(C)C)[C@H]2O)[C@@H](CC=O)C[C@@H](C)[C@@H](O[C@H]2CC[C@H](N(C)C)[C@@H](C)O2)/C=C/C=C/C[C@@H](C)OC(=O)C[C@H]1O | GES1 | cell growth or viability, CCK-8 | 72 h |  | 2.34
COc1ccc(/N=N/C(=S)N2CCOCC2)cc1 | human Fibroblast | cell growth or viability, resazurin | 48 h |  | > 50
C1=CCC=C1.[Cl][Au-]1([Cl])[N+](=P(c2ccccc2)(c2ccccc2)[c-]2cccc2)Cc2cccc[n+]21.[Fe+2].[O-][Cl+3]([O-])([O-])[O-] | HEK-293T | cell growth or viability, MTT | 74 h |  | 32.2
CCCCCCCCn1c(-c2cccnc2)nc(-c2ccccc2)c1-c1ccccc1 | BT-474 | cell growth or viability, SRB | 48 h |  | 53.2
N[C@@H](CNC(=O)c1ccc2[nH]c(C(=O)c3ccc(O)cc3)nc2c1)C(=O)O | NCI-H441 | cell growth or viability, ATP luminescence | 72 h |  | > 300

SMILES | cell line | test | conditions | how to read | IC50 [µM]
N#Cc1cccc(-c2ccc(=O)n(Cc3cccc(-c4ncc(OCC5CCN(CC(=O)NCCOCCNc6cccc7c6C(=O)N(C6CCC(=O)NC6=O)C7=O)CC5)cn4)c3)n2)c1 (centres unmarked) | EBC-1 | cell growth or viability, CCK-8 | 72 h |  | 0.00585
CO[C@@H]1[C@@H](O[C@@H]2O[C@H](C)[C@@H](O[C@H]3C[C@@](C)(O)[C@@H](OC(=O)CC(C)C)[C@H](C)O3)[C@H](N(C)C)[C@H]2O)[C@@H](CC=O)C[C@@H](C)[C@@H](O[C@H]2CC[C@H](N(C)C)[C@@H](C)O2)/C=C/C=C/C[C@@H](C)OC(=O)C[C@H]1O | GES1 | cell growth or viability, CCK-8 | 72 h |  | 18.5
Clc1nc2cc3c(cc2cc1-c1nc2ccccc2[nH]1)OCO3 | L02 | cell growth or viability, MTT | 48 h |  | > 100
O=C(NCC1(c2nc(-c3ccccc3)cs2)CCOCC1)c1cccc(-c2noc(C(F)(F)F)n2)c1 | DHL4 | cell proliferation, CCK-8 | 5 days |  | > 10
CC(C)(C)N=[C](NCc1ccc(N)cc1)[AuH][Cl] | MRC5 | cell growth or viability |  |  | > 100
Clc1ccc2[nH]c(-c3cc4ccccc4nc3Cl)nc2c1 | BEL-7404 | cell growth or viability, MTT | 48 h |  | 22.2
N#Cc1cccc(-c2ccc(=O)n(Cc3cccc(-c4ncc(OCC5CCN(CCCCCCCCC(=O)Nc6cccc7c6C(=O)N(C6CCC(=O)NC6=O)C7=O)CC5)cn4)c3)n2)c1 (centres unmarked) | EBC-1 | cell growth or viability, CCK-8 | 72 h |  | 0.0214
COc1c(O)cc2oc3c(Br)c(O)c(CCC(C)C)c(O)c3c(=O)c2c1CCC(C)C | SMMC-7721 | cell growth or viability | 48 h |  | 10.8
O=C(CCCCCCNc1ccc(C(=O)Nc2ccc(Cl)c(NC(=O)c3cccc(Cl)c3)c2)cn1)NO | NIH3T3 Gli-luciferase | Hedgehog signalling reporter | 36 h, together with: Shh-N conditioned medium 20% |  | 0.027
CCN1/C(=C/C=C2\CCCC(/C=C/C3=[N+](CC)c4ccccc4C3(C)C)=C2NCCCCCCCCN2CCC(Nc3nc4ccccc4n3Cc3ccc(F)cc3)CC2)C(C)(C)c2ccccc21 | LN-229 | cell growth or viability, CCK-8 | 72 h |  | ~1
Cc1ccc2nc(Cl)c(-c3nc4cc(Br)ccc4[nH]3)cc2c1 | L02 | cell growth or viability, MTT | 48 h |  | > 100
C=C1C(=O)O[C@H]2CC3=C[C@@H](C/C(C)=C/[C@@H](OC(=O)/C=C/c4ccccc4)[C@H]12)OC3=O | SK-MEL-2 | cell growth or viability, MTT | 24 h |  | 5.7
COc1ccc2cc3[n+](cc2c1OCc1cn(Cc2c(Cl)cccc2Cl)nn1)CCc1cc2c(cc1-3)OCO2 | SMMC-7721 | cell growth or viability, MTT |  |  | 15.7
CCc1ccc([C@H](C)CC(=O)NC(=O)N[C@@H]2O[C@H](CO)[C@@H](O)[C@H](O)[C@H]2O)cc1 | human T-lymphocyte | cell growth or viability | 72 h |  | > 250
C[C@]12CC/C(=N\O)C=C1CCC1C2CC[C@]2(C)/C(=C/c3ccccn3)CCC12 (some centres unmarked) | human Fibroblast | cell growth or viability, resazurin | 72 h |  | > 50
CC[C@@]12CCc3c(c4ccccc4n3C)CCN(C[C@H](O)[C@H]1O)C2 | BV-2 | cell growth or viability, MTT |  |  | 56.7
CC(C)N(C[C@H]1O[C@@H](n2cnc3c(N)ncnc32)[C@H](O)[C@@H]1O)C1CC2CN(Cc3ccc(S(C)(=O)=O)cc3)CC2C1 (some centres unmarked) | H460 wild type | cell growth | 72 h |  | > 100
COCCNc1nc(-c2nccn2C)nc2sc(-c3cccc(OC)c3Cl)c(-c3ccccc3)c12 | MIA PaCa-2 (KRAS G12C) | Western blot, refers to: phospho-MEK, ERK1/2 and Akt | 6 h, together with: EGF 15 min |  | 1 to 3
CCCCCCCCCCCCn1c(-c2cccnc2)nc(-c2ccc(C)cc2)c1-c1ccc(C)cc1 | BT-474 | cell growth or viability, SRB | 48 h |  | > 100
CC1=C2[O][Ru-]([Cl])[O+]=C2C=CN1CCCN1C=CC2=[O+][Ru-]([Cl])[O]C2=C1C.Cc1ccc(C(C)C)cc1.Cc1ccc(C(C)C)cc1 | KYSE-70 | cell growth or viability, crystal violet | 96 h |  | > 20
C(=C\c1cnc2[nH]c3ccc(-c4ccc(OCc5nnn[nH]5)cc4)cc3c2c1)/c1ccccc1 | Ba/F3 NPM-ALK | cell proliferation, [3H]-thymidine incorporation |  |  | 3.5
NC(=O)CNC(=O)[C@@H]1CCCN1C(=O)[C@H](Cc1ccc(O)cc1)NC(=O)[C@H](Cc1c[nH]c2ccccc12)NC(=O)[C@@H](Cc1c[nH]c2ccccc12)NC(=O)[C@H](Cc1c[nH]cn1)NC(=O)[C@H](CO)NC(=O)[C@H](Cc1c[nH]c2ccccc12)NC(=O)[C@H](Cc1c[nH]cn1)NC(=O)[C@@H]1CCC(=O)N1 | WPE-1-NB26-3 | cell growth, inhibitor, sulforhodamine B staining | four days |  | 0.0023 ± 0.0009
COc1ccc(NC(=O)O[C@H]2[C@H](C)O[C@@H](O[C@H]3[C@H](N(C)C)[C@@H](O)[C@H](O[C@H]4[C@@H](CC=O)C[C@@H](C)[C@@H](O[C@H]5CC[C@H](N(C)C)[C@@H](C)O5)/C=C/C=C/C[C@@H](C)OC(=O)C[C@@H](O)[C@@H]4OC)O[C@@H]3C)C[C@@]2(C)O)cc1 | GES1 | cell growth or viability, CCK-8 | 72 h |  | > 50
CC(=O)C1=C(C)NC(SCC(=O)c2ccccc2)=C(C#N)C1c1sccc1C (centres unmarked) | HeLa with GR | AP-1 reporter transrepression | together with: PMA 1 ng/mL | relative to: dexamethasone 10 µM | 1.06 ± 0.029
Cc1ncsc1-c1ccc(C(CO)NC(=O)C2CC(O)CN2C(=O)C(C(C)C)n2cc(-c3ccc(COc4c(-c5c(C)c(F)cc6[nH]ncc56)c(C5CC5)cc5c(N6CC7CC6CN7)nc(OC6CCOCC6)nc45)cc3)nn2)cc1 (centres unmarked) | A-375 (KRAS wild type) | cell growth, CellTiter-Glo | 144 h, 3D culture |  | > 10

Some of these lines once more:
SMILES | cell line | test | conditions | how to read | IC50 [µM]
COc1cccc2c1C(=O)c1c(O)c3c(c(O)c1C2=O)CC(O)(C(=O)CO)CC3OC1CC(NC(=O)CCC2=C(C)C(=O)C=C(C(C)C)C2=O)C(O)C(C)O1 (centres unmarked) | human dermal fibroblasts | cytotoxicity, MTT | 72 h |  | ~10
CCCCCCCCn1c(-c2cccnc2)nc(-c2ccccc2)c1-c1ccccc1 | BT-474 | cell growth or viability, SRB | 48 h |  | 53.2
CCN1/C(=C/C=C2\CCCC(/C=C/C3=[N+](CC)c4ccccc4C3(C)C)=C2NCCCCCCCCN2CCC(Nc3nc4ccccc4n3Cc3ccc(F)cc3)CC2)C(C)(C)c2ccccc21 | LN-229 | cell growth or viability, CCK-8 | 72 h |  | ~1
C1=CCC=C1.[Cl][Au-]1([Cl])[N+](=P(c2ccccc2)(c2ccccc2)[c-]2cccc2)Cc2cccc[n+]21.[Fe+2].[O-][Cl+3]([O-])([O-])[O-] | HEK-293T | cell growth or viability, MTT | 74 h |  | 32.2
CC[C@@]12CCc3c(c4ccccc4n3C)CCN(C[C@H](O)[C@H]1O)C2 | BV-2 | cell growth or viability, MTT |  |  | 56.7
Cc1ccc2nc(Cl)c(-c3nc4cc(Br)ccc4[nH]3)cc2c1 | L02 | cell growth or viability, MTT | 48 h |  | > 100
COc1ccc2cc3[n+](cc2c1OCc1cn(Cc2ccc(Cl)cc2F)nn1)CCc1cc2c(cc1-3)OCO2 | SMMC-7721 | cell growth or viability, MTT |  |  | 14.3
